Measurements from different studies.
A part holds a random share of what one study measured. Positions count from the first letter of the parent shown.
UniProt P11229, sequence (whole entry, looked up): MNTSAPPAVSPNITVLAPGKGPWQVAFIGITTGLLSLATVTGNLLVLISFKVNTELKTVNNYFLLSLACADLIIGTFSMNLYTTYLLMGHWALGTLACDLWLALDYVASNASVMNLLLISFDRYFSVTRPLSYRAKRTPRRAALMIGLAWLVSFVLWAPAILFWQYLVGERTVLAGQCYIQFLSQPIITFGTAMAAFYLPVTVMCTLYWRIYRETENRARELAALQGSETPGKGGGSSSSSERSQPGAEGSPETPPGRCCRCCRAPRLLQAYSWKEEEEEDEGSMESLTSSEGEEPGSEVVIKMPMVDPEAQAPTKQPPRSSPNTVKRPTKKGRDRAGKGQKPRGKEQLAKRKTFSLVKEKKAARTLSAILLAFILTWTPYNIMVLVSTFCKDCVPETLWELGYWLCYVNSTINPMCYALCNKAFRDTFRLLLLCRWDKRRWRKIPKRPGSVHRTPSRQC

Series 1
Target: HLA class I histocompatibility antigen, C alpha chain, allele C*04:01 (Homo sapiens, UniProt P10321)
Observed: peptide-MHC binding
Form: peptide
Concentration: concentration not given
`YTIDLNDAF`: binding “inactive”.
For `KVFPYALINK`, binding read “inactive”.
For `YPPPRYITV`, binding read “inactive”.
Under binding, `MPMKGRFPI` is recorded as “inactive”.
For `LPADPASVL`, binding read “inactive”.
For `FTASVSTVV`, binding read “inactive”.
`SRWAISHWL`: binding “inactive”.
`TVYPKTHYV`: binding “inactive”.

Series 2
Target: CCNB2, cyclin fold, Cln2 fusion (human)
Method: yeast growth competition, sequencing
Medium: yeast
Notes: weak parent motif
Reference: not given
Reading: higher = stronger binding
Parent: viral docking peptide; KGVKRKLFAEDSS
`A9W` — result for “normalised enrichment score”: 0.332.
`G2H`: “normalised enrichment score” 0.603.
Under “normalised enrichment score”, `D11T` is recorded as 0.548.
`K4S`: “normalised enrichment score” 0.537.
`L7M`: “normalised enrichment score” 0.478.
`S12Q`: “normalised enrichment score” -0.0118.
For `A9Q`, “normalised enrichment score” read 1.07.
`G2F`: “normalised enrichment score” 0.597.
For `E10M`, “normalised enrichment score” read 0.713.
For `A9E`, “normalised enrichment score” read 1.3.
For `F8R`, “normalised enrichment score” read 0.268.
For `G2R`, “normalised enrichment score” read 0.966.
`D11G` — result for “normalised enrichment score”: 0.904.
`F8Y` — result for “normalised enrichment score”: 0.0559.
`R5K F8L` — result for “normalised enrichment score”: 0.828.
`G2S`: “normalised enrichment score” 0.866.
`R5V`: “normalised enrichment score” 0.374.
`E10N` — result for “normalised enrichment score”: 0.63.
Under “normalised enrichment score”, `K4T` is recorded as 0.236.
`D11S` — result for “normalised enrichment score”: 1.16.
Under “normalised enrichment score”, `V3C` is recorded as 0.457.
Under “normalised enrichment score”, `G2L` is recorded as 0.441.
`R5Q`: “normalised enrichment score” 0.666.
For `K6G`, “normalised enrichment score” read 0.201.
`V3F`: “normalised enrichment score” 0.255.

Series 3
Target: Centromere-binding protein 1, full length, N-terminal tag (CBF1, Saccharomyces cerevisiae, UniProt P17106, residues 1-351)
UniProt P17106, sequence (whole entry, looked up): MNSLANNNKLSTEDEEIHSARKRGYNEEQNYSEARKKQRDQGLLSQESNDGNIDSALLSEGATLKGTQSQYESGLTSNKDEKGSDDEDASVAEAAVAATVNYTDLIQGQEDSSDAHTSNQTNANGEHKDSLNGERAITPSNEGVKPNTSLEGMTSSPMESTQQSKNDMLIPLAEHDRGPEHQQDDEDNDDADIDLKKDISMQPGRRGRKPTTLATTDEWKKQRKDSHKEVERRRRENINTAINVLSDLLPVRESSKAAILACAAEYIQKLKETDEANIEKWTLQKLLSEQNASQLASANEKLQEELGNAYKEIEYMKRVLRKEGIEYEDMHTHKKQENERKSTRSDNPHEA
Method: protein-binding microarray
Form: double-stranded DNA, one strand shown
Medium: in vitro
Concentration: 0.8 µM
Notes: whole 60-bp probe, no competitor
Reading: higher = stronger binding
All sequences stand within: … GTCTTGATTCGCTTGACGCTGCTG
The fluorescence intensity of `GAATATTGATGTCCTGACGTGGTGTACAAACTATAG` is reported as 588 a.u.
The fluorescence intensity of `CTATTAGTTAAGCACGTGCCGATGATATCAATTTTC` is reported as 17200 a.u.
`TGTACGAAGCTATATAACGTGTGTATAGTAGTTAGG` has a fluorescence intensity of 577 a.u.
The fluorescence intensity of `GAAGTAAATACTGAAAACGTGCTGGAGAATAGTTAG` is reported as 998 a.u.
The fluorescence intensity of `TGTACGAAGCTATGGGTTGTGATTATAGTAGTTAGG` is reported as 535 a.u.
For `GAAATAATACTTATCAGCGTGATTGGATTGTAGTAG`, the fluorescence intensity was 721 a.u.
For `CTATAATATAATGTGCACGTTCTAAAAATAATTTTC`, the fluorescence intensity was 1160 a.u.
The fluorescence intensity of `GAATCAGACAGTTCTGTCGTGATGGGAGAACTGTAG` is reported as 506 a.u.

Series 4
Target: Hepatocyte nuclear factor 3-beta, forkhead domain (FOXA2, Homo sapiens, UniProt Q9Y261, residues 142-269)
Method: protein-binding microarray
Form: double-stranded DNA, one strand shown
Medium: in vitro
Concentration: not given
Notes: k-mer, scored over probes, only values ≥0.25
Reading: higher = stronger binding
Residues (chain): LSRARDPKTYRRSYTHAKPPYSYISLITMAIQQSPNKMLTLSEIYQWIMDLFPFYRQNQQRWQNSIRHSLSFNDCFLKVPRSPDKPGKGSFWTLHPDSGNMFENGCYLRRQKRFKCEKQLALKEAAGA
With `GTAACAGA` the E-score was 0.278.
`ATTTATAG` has an E-score of 0.274.
For `CAATGACA`, the E-score was 0.288.
For `CAAACATC`, the E-score was 0.272.
`ACATATCA` has an E-score of 0.366.
`ATCATAAG` has an E-score of 0.265.
With `CAAACGTA` the E-score was 0.283.
The E-score of `GATTGATA` is reported as 0.301.

Further values, each from its own experiment
For COc1ccc2c(c1)O[C@@H](c1ccc(OC)c(OC)c1)C[C@H]2NC(=O)C1(c2ccc3c(c2)OC(F)(F)O3)CC1, the inhibition was -17.4% (Muscarinic acetylcholine receptor M1 (CHRM1, Homo sapiens, UniProt P11229); binding, radioligand binding; 10 µM).

Excerpt of the above (series 3):
The fluorescence intensity of `CTATTAGTTAAGCACGTGCCGATGATATCAATTTTC` is reported as 17200 a.u.
The fluorescence intensity of `TGTACGAAGCTATGGGTTGTGATTATAGTAGTTAGG` is reported as 535 a.u.
For `GAAATAATACTTATCAGCGTGATTGGATTGTAGTAG`, the fluorescence intensity was 721 a.u.
For `CTATAATATAATGTGCACGTTCTAAAAATAATTTTC`, the fluorescence intensity was 1160 a.u.
